Measured values of several laboratories.
A part holds a random share of what one study measured. Substitutions count along the parent as printed.

Series 1
Target: CCNF, cyclin fold, Cln2 fusion (human)
Method: yeast growth competition, sequencing
Medium: yeast
Notes: strong parent motif
Relative to: not given
Reading: higher = stronger binding
Parent: E2F1 docking peptide (human); PPVKRRLDLETDH
Variant | normalised enrichment score
P2S | 6.65
T11C | 6.23
R5W | 0.614
H13C | 6.71
V3P | 5.48
H13E | 6.8
L7A | 0.645
V3T | 5.28
D12R | 5.2
D12S | 6
D12V | 7.43
P1Q | 5.68
K4H | 4.8
D12T | 6.18
P1S | 2.85
P2D | 5.47
R6T | 2.37
L7T | 0.185
D8H | 7.11
V3A | 7.01
T11S | 6.24
R5Q | 0.362
V3E | 2.51
R5K | 2.17
P1H | 7

Series 2
Target: Sal-like protein 4, full length isoform B (SALL4, Homo sapiens, UniProt Q9UJQ4-2, residues 1-616)
Method: universal PBM
Form: double-stranded DNA, one strand shown
Medium: in vitro
Concentration: not given
Notes: 8-mer, flanks averaged, mean of replicates
Reading: higher = stronger binding
Residues (chain): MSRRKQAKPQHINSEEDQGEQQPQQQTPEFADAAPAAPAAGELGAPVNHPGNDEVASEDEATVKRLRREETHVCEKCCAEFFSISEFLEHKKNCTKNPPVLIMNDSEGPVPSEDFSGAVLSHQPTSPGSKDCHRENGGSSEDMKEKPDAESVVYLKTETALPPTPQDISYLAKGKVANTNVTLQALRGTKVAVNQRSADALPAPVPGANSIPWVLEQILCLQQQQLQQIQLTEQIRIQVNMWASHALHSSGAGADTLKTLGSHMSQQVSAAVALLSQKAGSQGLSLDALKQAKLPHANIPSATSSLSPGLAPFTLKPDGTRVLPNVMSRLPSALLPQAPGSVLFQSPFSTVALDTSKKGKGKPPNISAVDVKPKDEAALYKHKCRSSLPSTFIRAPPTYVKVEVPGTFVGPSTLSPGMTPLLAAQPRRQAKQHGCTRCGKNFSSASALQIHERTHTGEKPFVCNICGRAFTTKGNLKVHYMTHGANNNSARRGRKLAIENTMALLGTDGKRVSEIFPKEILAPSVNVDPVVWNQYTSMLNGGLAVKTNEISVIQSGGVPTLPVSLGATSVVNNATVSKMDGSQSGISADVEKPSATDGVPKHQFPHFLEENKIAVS
Sequence | E-score
ACTGACCA | -0.169
AGCAGAGG | -0.154
CCGGGCGA | -0.265
GCACAAAC | -0.0319
AGTGAACT | -0.0399
AGTAACCA | -0.0819
AGTTTTAT | 0.303
GGGACGAC | -0.227
AGGTTTTC | 0.0959
CCGGTAAC | -0.174
AAGTGATC | 0.0966
AGTCCGTG | -0.268
TAGGATAA | 0.154
AGGATGAC | -0.0147
ACCTTCCA | -0.0181
ACAAACGA | 0.149
GTCTGCAA | -0.157
AGGCCGGG | -0.266

Series 3
Substance: PhoQ, residues 284 288 289 292 302 303 SNGLAW
Method: Sort-seq
Measured: YFP reporter
Medium: E. coli
Notes: PhoQ-PhoP variant library
Added: 10 µM Mg2+
Relative to: high Mg2+ state
Reading: higher = stronger signaling
target | fold induction
PhoP, residues 12 14 15 18 19 HHYTI (Escherichia coli, UniProt P23836) | 11.6
PhoP, residues 12 14 15 18 19 AYFRS (Escherichia coli, UniProt P23836) | 10.3
PhoP, residues 12 14 15 18 19 SFCSL (Escherichia coli, UniProt P23836) | 13.2

Series 4
Target: RNA binding protein fox-1 homolog 2, RRM domain, GST-SBP tag (RBFOX2, Homo sapiens, UniProt O43251-10, residues 100-194)
Method: RNA Bind-n-Seq
Form: RNA
Medium: in vitro
Concentration: 365 nM
Notes: natural RNA segment, single round, ends assumed
Relative to: no-protein control
Reading: higher = stronger binding
Target sequence (chain): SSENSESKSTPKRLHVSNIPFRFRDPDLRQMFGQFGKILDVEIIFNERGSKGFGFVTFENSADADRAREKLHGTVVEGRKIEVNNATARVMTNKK
Sequence | RBNS enrichment (R)
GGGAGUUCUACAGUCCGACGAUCCACACAUCUUGCAUGGAUGGCAGCAUUGUUCUGAAGGGGUUUGCAGAAAAAAAAGAUUUUCUUUACAUAAAGUGAAUCAAAUUUGACAUUAUUUUAGAUCCCAGAGAAAUUGGAAUUCUCGGGUGCCAA | 1.29
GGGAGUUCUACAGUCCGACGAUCACAGCGUCGUUGAAGUCCCACUGUUGGCAGUUUUGGCAGUGGUACCUAACUCAUCGUGUUUGCAUUCUUGUUAAGUUUUUUUGGCUUUGGAAUGUGACACAGCCUUUUUGUGGAAUUCUCGGGUGCCAA | 1.06
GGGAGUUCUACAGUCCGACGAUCCUUUAUGAAGGGGCGUUUUAAAGUUGUUGUUUAGCAGUGACAUUUAAUAUGGUCCAAUUGCUUUUCUUUUUAACGUGACAAAAAGAGAAUAAGGAACAAACACUAUUGCUUGGAAUUCUCGGGUGCCAA | 0.788
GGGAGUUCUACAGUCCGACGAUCUGCAUUAAUACAUUACAAACAUGAAGAUGUUUGUAAAGUUUUGUUUUAGUCAUUUUCUUUGCAGUCACAUCAUUGUACCACCUUCAUUAUUGUAUAGAGCUGCUUCAAUUUGGAAUUCUCGGGUGCCAA | 0.468
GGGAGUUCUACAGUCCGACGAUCGGGGGUAGUGACAGAAUCCCUGGAAGAGUCUUGAGCCACUUCCUGCUGGGGUUUCUAGUAAAGUCUGUGAGCCUCUCCACCAGUCCCUGUAAAUGCUAAUGCAGCCCAGCUGGAAUUCUCGGGUGCCAA | 0.468
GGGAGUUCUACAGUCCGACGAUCGGGCUGGCUGCAGACAGGGUGGCUGAGGGGAGGGGCAAUCGAGUCCCGAGUCCUUGGCUUAGCAUGGCCUCCUUUUCUAGAACUGCACAGAGGGGAGGAGAGAGUAGCCGUGGAAUUCUCGGGUGCCAA | 2.21
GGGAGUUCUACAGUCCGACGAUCGUUACAAGGAUGCCUCUCCACACUUGUCCUCUCUACCCACCUACGCUGGAAAUCCAGUUCUUCAGGAACUGCCUUCCUCCCUAAUUCUGCUCUUGCUUUUCAGAGAGCCAUGGAAUUCUCGGGUGCCAA | 0.598
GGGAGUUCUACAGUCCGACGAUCGUGUAUUAGCGGACGGCCCUCUGGCCACCUACCCGAGAGAUCGUAGGGUCACAUACAUCCAACUUCACCACUUGGCUGCUUGAGAUUGGUUCUGCUCUUUUCUUCAUUUCUGGAAUUCUCGGGUGCCAA | 0.308
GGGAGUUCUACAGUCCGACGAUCUUUCCUCUGAUCCACUGUCCAAGUUGGGUCACAAACAUGUCACUCAUGCAUGCCUGCACUCCAGAGUCAGGUGCCAAGCUUGCUUGUCCUUCCCUGCCUCCAGGUCAGGGUGGAAUUCUCGGGUGCCAA | 0.922
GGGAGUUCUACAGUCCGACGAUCGUCACUCUGUAAGUUAUUUUGUACAUUCUCUACUCUUAAAAGUGUCCCCCAGUCAGUUCCUUUAACAGACCUGAGCUUCUAUGAUGCCAAGGGCGUUCACUGCGACCUGGUGGAAUUCUCGGGUGCCAA | 0.613
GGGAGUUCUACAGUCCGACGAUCCCAGCUAUAACCACAAUCCUUGCCUGAGGCCUUUUGAUUUCUGUUUGGCUGUGCCUGGGUAGGGGCACUGUGCCUGCUUCUGAUUUUGAAAGAAGCAUCCUGGAAACCAUUGGAAUUCUCGGGUGCCAA | 1.5
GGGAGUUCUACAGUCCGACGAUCUUUUAAACCUCCCUGUAUAGAAAAUAUCAUUAAGGAUGUAAAAGCCAUGCUUGCCUAUUUGCUGUAUACAUGUAAUGAAAUUGUAGAUAAAGUGUAGUGCAUUGAAACAAUGGAAUUCUCGGGUGCCAA | 1.61

Series 5
Target: Centromere-binding protein 1, full length, His-tagged (CBF1, Saccharomyces cerevisiae, UniProt P17106, residues 1-351)
Sequence of UniProt P17106 (whole entry, looked up): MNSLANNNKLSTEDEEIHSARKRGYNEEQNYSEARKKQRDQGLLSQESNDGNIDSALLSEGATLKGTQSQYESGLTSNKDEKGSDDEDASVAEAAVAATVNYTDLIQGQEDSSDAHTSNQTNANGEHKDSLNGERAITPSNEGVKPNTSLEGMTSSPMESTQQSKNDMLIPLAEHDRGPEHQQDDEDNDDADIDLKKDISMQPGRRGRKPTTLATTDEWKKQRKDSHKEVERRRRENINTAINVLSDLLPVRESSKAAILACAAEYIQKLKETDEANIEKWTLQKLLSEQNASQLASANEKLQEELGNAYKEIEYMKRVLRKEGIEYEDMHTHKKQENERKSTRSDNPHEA
Method: competition protein-binding microarray
Form: double-stranded DNA, one strand shown
Medium: in vitro
Concentration: 2 µM
Notes: whole 60-bp probe, lowest competitor level
Added: Pho4 competitor, 0.05 µM
Reading: higher = stronger binding
Sequence | fluorescence intensity [a.u.]
ATGAATGCGGACCATCACCTGCAACAGCAGCAGCAAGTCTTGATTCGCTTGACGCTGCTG | 79.1
AAATTACTAAGTTGAACGGTGGGTGACGCCGTATGAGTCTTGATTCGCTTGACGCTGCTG | 56.1
AAATTACTAAGTTGTTGTGTGGGTGACGCCGTATGAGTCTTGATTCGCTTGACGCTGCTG | 78.1
AAATTACTAAGTTGGTACGTGGGTGACGCCGTATGAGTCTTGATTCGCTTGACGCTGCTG | 68.2
GTCTTGTCTCATTGCGTTGTGGGTGTCCCCACTTCAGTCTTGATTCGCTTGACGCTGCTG | 98.4
ATCAGTAGACATGGACACGTGCCAGAAGTCATCAAAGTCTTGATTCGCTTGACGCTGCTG | 2720
TTGAGTTTCCCTCACTTCGTGATGGGCGTTAACGTCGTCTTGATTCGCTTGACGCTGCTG | 78.5
CGGGGTTAAGTTTGAGATGTGGGTGGCTTGCAGCAGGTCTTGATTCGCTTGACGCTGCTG | 66.5
CTTCTGTAAATTTGAGCCGTGGGTGGACGCGCCCCGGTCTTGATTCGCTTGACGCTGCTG | 79.9
AAATTACTAAGTTGTCACGAAACTTACCCCGTATGAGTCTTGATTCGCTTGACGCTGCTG | 81
CCGTAGGGACTTTTGCACGTTATTATGGGAATATCAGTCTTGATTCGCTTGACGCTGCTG | 139
CTAACGAAGGTTTTTCACGTGTATTACAAGCCAAGTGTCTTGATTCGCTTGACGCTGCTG | 731
TGATTGCCTCCGACGCTCGTGACGGGTTCCTCCGAAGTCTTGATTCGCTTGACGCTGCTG | 162
TTTTACGGACATAAGAACGTGCCGACCATTCTGGGAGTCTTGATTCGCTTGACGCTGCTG | 116
CTTCAGATGTCAGACAACGTGCAAAATCTTTTTTTCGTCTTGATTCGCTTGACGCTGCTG | 177
TGCGCAACAACTTGTTGCGTGGGTGTATGTCTAGAAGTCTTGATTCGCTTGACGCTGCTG | 70.2
CGGGGTTAAGTTTGGAATGTGGGTGGCTTGCAGCAGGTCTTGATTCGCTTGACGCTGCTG | 66.4
ATCTTGTTGCTGTTCTACGTGCTTTAGTGTAGTATTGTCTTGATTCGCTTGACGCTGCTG | 78.7
TGCGCAACAACTTTTCACGTGCTCTTATGTCTAGAAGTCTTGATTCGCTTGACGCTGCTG | 1720
TATTATAATACTCAACACGTGACTCGAGCCTTCCCAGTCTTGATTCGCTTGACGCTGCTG | 10700
GCCAAGCCCCTTCATCATGTGCCACTCCACATAACAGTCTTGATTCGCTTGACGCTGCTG | 262
CGGGGTTAAGTTTGGAGGGTGGGTGGCTTGCAGCAGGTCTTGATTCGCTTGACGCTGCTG | 84.6
CAATTGGGTATGAATCACACGCAATCAGCCCAATCAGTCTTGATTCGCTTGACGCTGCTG | 94.9
GACAGTCTTAGTGTAGACATGACAGTTCTTGGTGGCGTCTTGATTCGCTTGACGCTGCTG | 68.7
ATATGTGTCCGTAACCTCGTAGTTAGTGGCTGATTTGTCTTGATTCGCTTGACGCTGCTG | 76.6

Series 6
Target: ABI1, truncated, D143A, DHFR fusion (Arabidopsis thaliana)
Method: DHFR PCA, deep sequencing
Medium: yeast
Notes: methotrexate growth selection, single substitutions
Added: (+)-ABA 4.8 µM
Relative to: wild-type fitted maximum
Reading: higher = stronger binding
Parent: PYL1, truncated, DHFR fusion (Arabidopsis thaliana); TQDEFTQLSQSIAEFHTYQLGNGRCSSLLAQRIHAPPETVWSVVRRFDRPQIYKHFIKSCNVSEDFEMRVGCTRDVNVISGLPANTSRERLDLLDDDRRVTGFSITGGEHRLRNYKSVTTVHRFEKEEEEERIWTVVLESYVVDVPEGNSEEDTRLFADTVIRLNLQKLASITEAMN; partner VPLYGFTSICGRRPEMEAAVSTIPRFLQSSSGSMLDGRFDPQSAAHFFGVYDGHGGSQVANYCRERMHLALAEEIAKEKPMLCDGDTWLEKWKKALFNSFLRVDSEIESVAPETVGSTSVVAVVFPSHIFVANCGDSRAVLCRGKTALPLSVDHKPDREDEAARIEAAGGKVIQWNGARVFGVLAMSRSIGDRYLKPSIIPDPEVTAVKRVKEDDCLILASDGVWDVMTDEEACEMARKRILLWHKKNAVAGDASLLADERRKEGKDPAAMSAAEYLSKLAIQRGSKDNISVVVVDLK
Variant | relative binding score [%]
V121C | 28.4
L93Q | 49.5
A158Q | 1.44
I172D | -3.72
Q51L | 1.53
E174Y | 14.2
D97S | 71
T119E | -2.47
E38P | -2.56
V118W | -4.19
S140V | -3.83
L138E | -1.88
L93R | 59.9
R98G | 14.2
I133W | 64
E14K | 53.7
S11G | 45.8

Some of these lines once more (series 6):
Variant | relative binding score [%]
R98G | 14.2
L93R | 59.9
L138E | -1.88
T119E | -2.47
E14K | 53.7
E174Y | 14.2
D97S | 71
I133W | 64
